Values quoted from earlier work, collected from citations in different studies.
± marks the error that the study gave. In brackets after ≈: the same amount, converted by molar mass.
Chain of UniProt Q9Y2H9 (whole entry, looked up): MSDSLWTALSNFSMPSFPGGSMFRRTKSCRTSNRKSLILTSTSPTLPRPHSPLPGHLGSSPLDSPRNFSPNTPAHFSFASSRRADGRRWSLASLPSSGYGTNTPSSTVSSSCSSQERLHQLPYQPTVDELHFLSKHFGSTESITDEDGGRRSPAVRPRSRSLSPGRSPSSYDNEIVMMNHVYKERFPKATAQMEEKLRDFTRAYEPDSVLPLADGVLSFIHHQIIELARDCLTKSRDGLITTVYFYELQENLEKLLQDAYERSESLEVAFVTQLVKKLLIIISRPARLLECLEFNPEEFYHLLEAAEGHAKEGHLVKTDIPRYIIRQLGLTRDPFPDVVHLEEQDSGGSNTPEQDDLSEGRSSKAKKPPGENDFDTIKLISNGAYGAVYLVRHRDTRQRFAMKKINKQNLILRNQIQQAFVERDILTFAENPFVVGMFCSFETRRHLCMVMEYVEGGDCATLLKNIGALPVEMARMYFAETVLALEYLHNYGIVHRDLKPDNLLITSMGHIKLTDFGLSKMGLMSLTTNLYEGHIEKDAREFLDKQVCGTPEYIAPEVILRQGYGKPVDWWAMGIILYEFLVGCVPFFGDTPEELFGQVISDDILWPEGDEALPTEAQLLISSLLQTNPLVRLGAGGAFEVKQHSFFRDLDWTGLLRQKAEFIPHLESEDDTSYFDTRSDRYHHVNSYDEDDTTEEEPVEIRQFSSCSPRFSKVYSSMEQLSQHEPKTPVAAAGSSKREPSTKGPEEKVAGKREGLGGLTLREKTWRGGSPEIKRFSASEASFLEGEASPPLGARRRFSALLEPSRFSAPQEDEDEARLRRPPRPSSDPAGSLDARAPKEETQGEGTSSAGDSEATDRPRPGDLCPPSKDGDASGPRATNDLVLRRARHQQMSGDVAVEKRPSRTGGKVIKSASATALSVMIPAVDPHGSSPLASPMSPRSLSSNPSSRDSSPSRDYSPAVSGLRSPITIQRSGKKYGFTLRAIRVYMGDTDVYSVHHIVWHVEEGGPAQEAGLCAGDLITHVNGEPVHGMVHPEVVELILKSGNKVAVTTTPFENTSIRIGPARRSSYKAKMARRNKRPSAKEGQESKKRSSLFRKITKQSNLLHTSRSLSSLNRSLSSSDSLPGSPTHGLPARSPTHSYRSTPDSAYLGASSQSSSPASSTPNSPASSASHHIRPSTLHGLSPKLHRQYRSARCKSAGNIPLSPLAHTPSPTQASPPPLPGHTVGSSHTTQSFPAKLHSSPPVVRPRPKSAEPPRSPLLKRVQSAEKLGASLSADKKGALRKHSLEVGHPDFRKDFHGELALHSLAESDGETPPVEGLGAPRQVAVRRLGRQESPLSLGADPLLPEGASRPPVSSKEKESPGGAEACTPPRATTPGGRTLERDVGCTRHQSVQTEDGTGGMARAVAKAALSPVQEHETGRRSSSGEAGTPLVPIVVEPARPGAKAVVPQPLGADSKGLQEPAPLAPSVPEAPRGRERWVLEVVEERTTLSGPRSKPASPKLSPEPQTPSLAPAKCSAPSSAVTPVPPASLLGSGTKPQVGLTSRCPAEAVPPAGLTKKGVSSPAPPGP
Chain of UniProt P06536 (whole entry, looked up): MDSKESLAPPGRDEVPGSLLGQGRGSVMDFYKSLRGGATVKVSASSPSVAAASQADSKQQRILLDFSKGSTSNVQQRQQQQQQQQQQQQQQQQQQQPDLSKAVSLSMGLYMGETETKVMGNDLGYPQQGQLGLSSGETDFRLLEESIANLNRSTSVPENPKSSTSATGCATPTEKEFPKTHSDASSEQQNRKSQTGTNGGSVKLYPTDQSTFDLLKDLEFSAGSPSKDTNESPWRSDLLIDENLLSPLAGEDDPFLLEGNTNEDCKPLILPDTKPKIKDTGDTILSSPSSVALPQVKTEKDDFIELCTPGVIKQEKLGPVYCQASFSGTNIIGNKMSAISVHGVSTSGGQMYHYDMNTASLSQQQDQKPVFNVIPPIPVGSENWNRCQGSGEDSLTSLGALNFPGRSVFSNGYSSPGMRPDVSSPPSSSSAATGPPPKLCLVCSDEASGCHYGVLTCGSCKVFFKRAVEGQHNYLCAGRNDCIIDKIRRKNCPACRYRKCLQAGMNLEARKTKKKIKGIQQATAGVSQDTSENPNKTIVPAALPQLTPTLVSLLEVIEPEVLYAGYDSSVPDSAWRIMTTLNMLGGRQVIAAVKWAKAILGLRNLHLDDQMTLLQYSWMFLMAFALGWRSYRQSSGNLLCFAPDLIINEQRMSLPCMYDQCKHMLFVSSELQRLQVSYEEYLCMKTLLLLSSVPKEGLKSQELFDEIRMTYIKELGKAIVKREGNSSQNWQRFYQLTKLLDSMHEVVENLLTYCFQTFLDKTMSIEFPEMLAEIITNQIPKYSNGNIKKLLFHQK

The clearance of CCc1cc(/C(C)=N/OCc2ccc(C3CCCCC3)c(C(F)(F)F)c2)ccc1CN1CC(C(=O)O)C1 is reported as 2.03 L/h (population PK; human, CYP2C9*1/*3).
For c1ccc2ccccc2c1, the bioconcentration factor was 545 L/kg (fish; dose not given, experimental mean).
The Cmax of C#Cc1cccc(Nc2ncnc3cc(OCCOC)c(OCCOC)cc23)c1 is reported as 6060 nM (plasma; concentration not given, total, steady state).
The exposure increase of Cn1cncc1[C@@](N)(c1ccc(Cl)cc1)c1ccc2c(c1)c(-c1cccc(Cl)c1)cc(=O)n2C is reported as roughly 30% (human; concentration not given, together with: high-fat meal; baseline: fasted).
Cc1ncc(CO)c(C(=O)O)c1O: “renal clearance decrease” roughly 3 fold (cynomolgus monkey; dose not given, together with: probenecid; baseline: without probenecid over with).
CC(C)Nc1nc2cc(Cl)c(Cl)cc2n1[C@H]1O[C@@H](CO)[C@H](O)[C@@H]1O has a CL/F reduction of 35% (human; dose not given, clinical, together with: ketoconazole).
With CCC(C)C1OC2(CCC1C)CC1CC(C/C=C(\C)C(OC3CC(OC)C(OC4CC(OC)C(O)C(C)O4)C(C)O3)C(C)/C=C/C=C3\COC4C(O)C(C)=CC(C(=O)O1)C34O)O2 (stereo not drawn) the solubility was less than 1000 µg/mL (water).
Cc1cc2c(s1)Nc1ccccc1N=C2N1CCN(C)CC1 gave an AUC(0-inf) decrease of 34% (healthy male volunteers; dose not given, together with: carbamazepine 200 mg twice daily for 2 weeks).
Under “AUC(0-24 h), total”, Cc1cc(-c2nccc3c2ccn3CC(=O)Nc2ccc(-c3cnccn3)cn2)ccn1 is recorded as 186 µM·h (rat; 60 mg/kg/day, 1 month, repeat dosing).
CCC(=O)O[C@]1(C(=O)SCF)[C@H](C)C[C@H]2[C@@H]3C[C@H](F)C4=CC(=O)C=C[C@]4(C)[C@@]3(F)[C@@H](O)C[C@@]21C gave a receptor occupancy of 11.2% (Glucocorticoid receptor (Nr3c1, Rattus norvegicus, UniProt P06536); rat, spleen; intravenous, 90 nmol/kg, 7.033 (unit not given)).
Nc1ccn([C@H]2CC[C@@H](CO)O2)c(=O)n1 gave an oral bioavailability of 74% (human; 0.5 mg/kg).
With O=C(CCCN1CCC(O)(c2ccc(Cl)cc2)CC1)c1ccc(F)cc1 the solubility was less than 1000 µg/mL (water).
CC(C)(CO)c1cc2cc(NC(=O)C3(c4ccc5c(c4)OC(F)(F)O5)CC3)c(F)cc2n1C[C@@H](O)CO has an elimination half-life of 25.1 h (non-pregnant cystic fibrosis patients).
The remaining activity of Nc1cc(C(F)(F)F)c(-c2nc(N3CCOCC3)nc(N3CCOCC3)n2)cn1 is reported as 100% (Microtubule-associated serine/threonine-protein kinase 1 (MAST1, Homo sapiens, UniProt Q9Y2H9); enzyme activity; 10 µM; baseline: untreated).
The solubility of COc1cc2nc(N(C)CCCNC(=O)C3CCCO3)nc(N)c2cc1OC (stereo not drawn) is reported as less than 1000 µg/mL (water).
C[C@@H](O)[C@H]1C(=O)N2C(C(=O)O)=C(SCCN=CN)C[C@H]12 — result for “serum concentration reduction”: 73% (perpetrator, refers to: valproic acid; human, serum; dose not given; baseline: without compound).
N#CCNC(=O)c1ccc(-c2ccnc(Nc3ccc(N4CCOCC4)cc3)n2)cc1 — result for “incidence of grade ≥3 peripheral neuropathy”: 1.2% (patients with myelofibrosis; dose not given, integrated long-term safety, phase III trials).
[H]/N=C(/N)N[C@H]1[C@H](O)[C@@H](O)[C@H](O[C@@H]2O[C@@H](C)[C@](O)(C=O)[C@H]2O[C@@H]2O[C@@H](CO)[C@H](O)[C@@H](O)[C@@H]2NC)[C@@H](N/C(N)=N\[H])[C@@H]1O — result for “plasma fraction unbound”: 0.66 (plasma).
For COc1cc(N2CCC(N3CCN(C)CC3)CC2)ccc1Nc1ncc(Cl)c(Nc2ccccc2P(C)(C)=O)n1, the AUC(0-inf) was 6450 ng·h/mL (healthy subjects; 90 mg, single dose alone, itraconazole study).
Nc1ccccc1NC(=O)c1ccc(CNC(=O)OCc2cccnc2)cc1 has a solubility of less than 1000 µg/mL (water).
CC(C)(C)c1cc(C(C)(C)C)c(NC(=O)c2c[nH]c3ccccc3c2=O)cc1O has a solubility of 53 µg/mL (≈ 135 µM) (FaSSIF; literature value).
Cn1c(Cn2ccc(C(F)(F)F)c(Oc3cc(Cl)cc(C#N)c3)c2=O)n[nH]c1=O has an exposure reduction of 88% (human; dose not given, strong CYP3A4 induction, together with: rifampin).
O=C(CCCN1CC=C(n2c(=O)[nH]c3ccccc32)CC1)c1ccc(F)cc1 gave a Cmax of 10 nM (plasma; concentration not given, total, steady state).
With Cc1nc(Nc2ncc(C(=O)Nc3c(C)cccc3Cl)s2)cc(N2CCN(CCO)CC2)n1 the aqueous solubility was less than 1 µg/mL (pH 6.99).
Cc1nc(NC(=O)N2CCC[C@H]2C(N)=O)sc1-c1ccnc(C(C)(C)C(F)(F)F)c1: “unchanged drug recovered” 36% (human, feces; oral, 400 mg, time not given, radiolabelled, fasted; baseline: dose).
For C=C(F)C(=O)N1CCN(c2nc(OC[C@@H]3CCCN3C)nc3c2CCN(c2cccc4cccc(Cl)c24)C3)C[C@@H]1CC#N, “volume of distribution” read roughly 942 L (patients, advanced solid tumours; dose not given).
C[Si](C)(C)O[Si](C)(C)O[Si](C)(C)C gave a log KAW of 3.16 (vapour pressure over solubility; 25 °C).
For C#C[C@]1(O)CC[C@H]2[C@@H]3CCc4cc(O)ccc4[C@H]3CC[C@@]21C, “AUC(0-24 h), geometric mean” read 0.916 ng·h/mL (human, fed; 0.035 mg, multiple doses).
Cc1[nH]c(C)c(-c2ccc(-c3ccccc3Cl)nc2)c(=O)c1Cl has an IC50 of 220 nM (Plasmodium falciparum; whole cell extended time; 3D7; 72 h).
For CN(C)C(=N)N=C(N)N, “CLint passive liver” read 0.012 mL/min (human liver failure patients).
CC1(C)S[C@@H]2[C@H](NC(=O)[C@H](N)c3ccccc3)C(=O)N2[C@H]1C(=O)O gave an MIC of greater than 16 µg/mL (Pseudomonas aeruginosa; clinical isolate RKI-No_589/12).
For COC(=O)N[C@@H](C)CNc1nccc(-c2cn(C(C)C)nc2-c2cc(Cl)cc(NS(C)(=O)=O)c2F)n1, the excreted fraction was 47% (human, urine; dose not given).
For CCCOc1ccc(S(=O)(=O)N2CCN(CCO)CC2)cc1-c1nc2c(CCC)cn(CC)c2c(=O)[nH]1, “pulse rate change” read 17.9 bpm (healthy male volunteers; dose not given, with concomitant alcohol).
With COc1ccc([C@@H](O)c2cc(-c3ncnc4cc(N5CCOCC5)ccc34)c(F)cc2Cl)nn1 the Tmax was 2 h (mouse; oral, 20 mg/kg).
CC(=O)Oc1cccc2c1C(=O)c1c(OC(C)=O)cc(C(=O)O)cc1C2=O gave a diarrhoea incidence of 41% (human; concentration not given, clinical).
For COc1cc(Nc2c(C#N)cnc3cc(OCCCN4CCN(C)CC4)c(OC)cc23)c(Cl)cc1Cl, the solubility was 13.2 µg/mL (≈ 24.8 µM) (FaSSIF; literature value).
CC(C)C[C@H](NC(=O)[C@H](Cc1ccccc1)NC(=O)c1cnccn1)B(O)O: “severe peripheral neuropathy incidence” no more than 23% (human patients; dose not given).
CNC(=O)c1cc(Oc2ccc(NC(=O)Nc3ccc(Cl)c(C(F)(F)F)c3)cc2)ccn1 has a diarrhoea incidence of 43% (human; concentration not given, clinical).
Cc1[nH]c(C)c(-c2ccc(OCc3ccc(OC(F)(F)F)cc3)nc2)c(=O)c1Cl gave an IC50 of 70 nM (Plasmodium falciparum; whole cell extended time; 3D7; 72 h).
With CC(=O)O[C@@H]1CC[C@@]2(C)[C@@H](CC[C@]3(C)[C@@H]2C(=O)C=C2[C@@H]4[C@@H](C)[C@H](C)CC[C@]4(C)CC[C@]23C)[C@@]1(C)C(=O)O the aqueous solubility was less than 1 µg/mL (water).
CC(=O)Oc1ccccc1C(=O)O has a solubility of less than 1000 µg/mL (water).
The AUC(0-inf) of CNCc1cc(-c2ccccc2F)n(S(=O)(=O)c2cccnc2)c1 is reported as 472 ng·h/mL (human; 40 mg, multiple dose).
With C[C@H]1COCCN1c1nc(-c2cnc(N)cc2C(F)F)nc(N2CCOCC2)n1 the GI50 was 193 nM (SR).
With COCCc1ccc(OCC(O)CNC(C)C)cc1 (stereo not drawn) the aqueous solubility was greater than 10000 µg/mL.
With Nc1nc(NC2CC2)c2ncn([C@H]3C=C[C@@H](CO)C3)c2n1 the oral bioavailability was greater than 76% (monkey; dose not given).
C=CC[C@@H]1/C=C(\C)C[C@H](C)C[C@H](OC)[C@H]2O[C@@](O)(C(=O)C(=O)N3CCCC[C@H]3C(=O)O[C@H](/C(C)=C/[C@@H]3CC[C@@H](O)[C@H](OC)C3)[C@H](C)[C@@H](O)CC1=O)[C@H](C)C[C@@H]2OC gave a fraction metabolized of greater than 99% (human).
The MIC of CNC(C)C1CCC(N)C(OC2C(N)CC(N)C(OC3OCC(C)(O)C(NC)C3O)C2O)O1 (stereo not drawn) is reported as greater than 8 µg/mL (Pseudomonas aeruginosa; clinical isolate RKI-No_46/14).
The free Cmax of O=C1CCc2cc(OCCCCc3nnnn3C3CCCCC3)ccc2N1 is reported as 128 nM (human).
The oral bioavailability of Cc1cn([C@H]2C[C@H](N=[N+]=[N-])[C@@H](CO)O2)c(=O)[nH]c1=O is reported as 74% (human).
With CC(=O)N1CCN(c2ccc(OCC3COC(Cn4ccnc4)(c4ccc(Cl)cc4Cl)O3)cc2)CC1 (stereo not drawn) the crossover pressure was 130 to 150 bar (supercritical CO2).
CCS(=O)(=O)N1CC(CC#N)(n2cc(-c3ncnc4[nH]ccc34)cn2)C1 has a Cavg,ss of 19.9 ng/mL (rheumatoid arthritis patients; 4 mg).
The free Cmax of CCCCN(CCCC)CCC(O)c1cc2c(Cl)cc(Cl)cc2c2cc(C(F)(F)F)ccc12 (stereo not drawn) is reported as 172 nM (human).
The total clearance of Cc1ccc(NC(=O)c2ccc(CN3CCN(C)CC3)cc2)cc1Nc1nc(-c2cccnc2)cs1 is reported as 42 to 84 L/h (human; dose not given, steady state estimated).
For Nc1cccc2c1C(=O)N(C1CCC(=O)NC1=O)C2=O (stereo not drawn), “incidence of grade 3 fatigue” read 8% (relapsed refractory multiple myeloma patients; dose not given, grade up to 4).
CC(C)(/C=C(\C#N)C(=O)N1CCC[C@@H](n2nc(-c3ccc(Oc4ccccc4)cc3F)c3c(N)ncnc32)C1)N1CCN(C2COC2)CC1 — result for “volume of distribution”: 4760 L (human; 600 mg once daily).
For CS(=O)(=O)CCNCc1ccc(-c2ccc3ncnc(Nc4ccc(OCc5cccc(F)c5)c(Cl)c4)c3c2)o1, the solubility was less than 1000 µg/mL (water).
CC[C@@H]1C(=O)OC[C@@H]1Cc1cncn1C.Cl has a free Cmax of 112 nM (plasma).
CCOc1ccc(-c2nc3ccc(-c4nc5ccc(N6CCN(C)CC6)cc5[nH]4)cc3[nH]2)cc1: “fluorescence quantum yield” 0.026 ± 0.001 (PBS).
Nc1nc(=O)n([C@@H]2CS[C@H](CO)O2)cc1F gave a bioavailability of 63% (monkey; 10 mg/kg).
With COc1cc2c(Oc3ccc4[nH]c(C)cc4c3F)ccnc2cc1OCC1(N)CC1 the AUC(0-120 h) was 894 ± 305 ng·h/mL (adult human; 16 mg single dose).
Under “adverse event incidence”, CN(C)C(=O)c1cc2cnc(Nc3ccc(N4CCNCC4)cn3)nc2n1C1CCCC1 is recorded as 37.3% (refers to: diarrhea; advanced solid tumour or lymphoma patients; dose not given, 3 weeks on 1 week off, any grade; baseline: patients).
CN1CCN(C2=Nc3cc(Cl)ccc3Nc3ccccc32)CC1 has a free Cmax of 83.5 nM (human).
Nc1ncnc2c1ncn2[C@@H]1O[C@H](CO)C[C@@H]1F has an oral bioavailability of 75% (human).
For CN(C)C(=N)N=C(N)N, the fraction absorbed was 86% (human).
Cn1c(=O)c2[nH]cnc2n(C)c1=O has a free Cmax of 7060 nM (plasma; literature data).
C[C@@H](O[C@H]1OCCN(Cc2n[nH]c(=O)[nH]2)[C@H]1c1ccc(F)cc1)c1cc(C(F)(F)F)cc(C(F)(F)F)c1 has a crossover pressure of 150 to 180 bar (supercritical CO2).

Excerpt of the above:
CC(C)Nc1nc2cc(Cl)c(Cl)cc2n1[C@H]1O[C@@H](CO)[C@H](O)[C@@H]1O has a CL/F reduction of 35% (human; dose not given, clinical, together with: ketoconazole).
With CCC(C)C1OC2(CCC1C)CC1CC(C/C=C(\C)C(OC3CC(OC)C(OC4CC(OC)C(O)C(C)O4)C(C)O3)C(C)/C=C/C=C3\COC4C(O)C(C)=CC(C(=O)O1)C34O)O2 (stereo not drawn) the solubility was less than 1000 µg/mL (water).
Cc1cc2c(s1)Nc1ccccc1N=C2N1CCN(C)CC1 gave an AUC(0-inf) decrease of 34% (healthy male volunteers; dose not given, together with: carbamazepine 200 mg twice daily for 2 weeks).
Under “AUC(0-24 h), total”, Cc1cc(-c2nccc3c2ccn3CC(=O)Nc2ccc(-c3cnccn3)cn2)ccn1 is recorded as 186 µM·h (rat; 60 mg/kg/day, 1 month, repeat dosing).
CCC(=O)O[C@]1(C(=O)SCF)[C@H](C)C[C@H]2[C@@H]3C[C@H](F)C4=CC(=O)C=C[C@]4(C)[C@@]3(F)[C@@H](O)C[C@@]21C gave a receptor occupancy of 11.2% (Glucocorticoid receptor (Nr3c1, Rattus norvegicus, UniProt P06536); rat, spleen; intravenous, 90 nmol/kg, 7.033 (unit not given)).
Nc1ccn([C@H]2CC[C@@H](CO)O2)c(=O)n1 gave an oral bioavailability of 74% (human; 0.5 mg/kg).
With O=C(CCCN1CCC(O)(c2ccc(Cl)cc2)CC1)c1ccc(F)cc1 the solubility was less than 1000 µg/mL (water).
